# Measured values pooled from the literature.
# A part holds a random share of what one study measured.
# UniProt Q13188, sequence (whole entry, looked up): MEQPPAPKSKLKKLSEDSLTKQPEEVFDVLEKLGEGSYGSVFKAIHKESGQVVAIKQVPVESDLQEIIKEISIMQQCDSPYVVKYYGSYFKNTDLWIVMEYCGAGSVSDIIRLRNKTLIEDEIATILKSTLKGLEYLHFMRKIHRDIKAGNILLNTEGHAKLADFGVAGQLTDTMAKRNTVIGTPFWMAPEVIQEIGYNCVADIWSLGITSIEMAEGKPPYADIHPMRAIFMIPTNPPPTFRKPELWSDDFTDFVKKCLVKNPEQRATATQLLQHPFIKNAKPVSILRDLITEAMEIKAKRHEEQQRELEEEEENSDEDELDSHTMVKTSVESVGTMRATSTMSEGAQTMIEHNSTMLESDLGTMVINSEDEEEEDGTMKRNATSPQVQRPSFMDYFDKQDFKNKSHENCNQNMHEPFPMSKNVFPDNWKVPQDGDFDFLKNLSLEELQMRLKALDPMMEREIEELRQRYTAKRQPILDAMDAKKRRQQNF
# UniProt O94804, sequence (whole entry, looked up): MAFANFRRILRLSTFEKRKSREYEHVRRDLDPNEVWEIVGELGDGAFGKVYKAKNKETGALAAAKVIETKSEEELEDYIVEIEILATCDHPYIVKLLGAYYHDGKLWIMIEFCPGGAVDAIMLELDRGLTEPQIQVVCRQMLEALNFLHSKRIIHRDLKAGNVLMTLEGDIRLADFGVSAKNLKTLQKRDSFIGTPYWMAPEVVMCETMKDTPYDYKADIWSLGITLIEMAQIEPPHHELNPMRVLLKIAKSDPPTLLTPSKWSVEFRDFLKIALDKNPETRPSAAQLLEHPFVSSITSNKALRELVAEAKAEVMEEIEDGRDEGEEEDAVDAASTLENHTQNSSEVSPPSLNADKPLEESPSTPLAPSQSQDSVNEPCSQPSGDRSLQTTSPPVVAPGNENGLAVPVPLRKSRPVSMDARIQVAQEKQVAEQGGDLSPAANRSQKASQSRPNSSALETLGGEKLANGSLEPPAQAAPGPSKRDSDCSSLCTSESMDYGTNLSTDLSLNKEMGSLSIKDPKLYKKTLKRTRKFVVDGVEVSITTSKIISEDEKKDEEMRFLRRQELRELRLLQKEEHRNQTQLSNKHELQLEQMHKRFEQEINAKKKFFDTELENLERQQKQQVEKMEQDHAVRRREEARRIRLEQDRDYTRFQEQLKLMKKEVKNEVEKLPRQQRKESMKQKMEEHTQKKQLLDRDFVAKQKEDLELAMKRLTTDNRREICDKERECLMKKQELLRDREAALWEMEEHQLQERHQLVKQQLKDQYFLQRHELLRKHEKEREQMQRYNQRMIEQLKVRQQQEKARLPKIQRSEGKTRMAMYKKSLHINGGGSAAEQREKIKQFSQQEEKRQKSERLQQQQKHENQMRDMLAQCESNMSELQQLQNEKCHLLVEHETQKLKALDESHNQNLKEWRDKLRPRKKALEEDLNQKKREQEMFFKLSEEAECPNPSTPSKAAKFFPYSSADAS
# UniProt P42336, sequence (whole entry, unmodified, looked up): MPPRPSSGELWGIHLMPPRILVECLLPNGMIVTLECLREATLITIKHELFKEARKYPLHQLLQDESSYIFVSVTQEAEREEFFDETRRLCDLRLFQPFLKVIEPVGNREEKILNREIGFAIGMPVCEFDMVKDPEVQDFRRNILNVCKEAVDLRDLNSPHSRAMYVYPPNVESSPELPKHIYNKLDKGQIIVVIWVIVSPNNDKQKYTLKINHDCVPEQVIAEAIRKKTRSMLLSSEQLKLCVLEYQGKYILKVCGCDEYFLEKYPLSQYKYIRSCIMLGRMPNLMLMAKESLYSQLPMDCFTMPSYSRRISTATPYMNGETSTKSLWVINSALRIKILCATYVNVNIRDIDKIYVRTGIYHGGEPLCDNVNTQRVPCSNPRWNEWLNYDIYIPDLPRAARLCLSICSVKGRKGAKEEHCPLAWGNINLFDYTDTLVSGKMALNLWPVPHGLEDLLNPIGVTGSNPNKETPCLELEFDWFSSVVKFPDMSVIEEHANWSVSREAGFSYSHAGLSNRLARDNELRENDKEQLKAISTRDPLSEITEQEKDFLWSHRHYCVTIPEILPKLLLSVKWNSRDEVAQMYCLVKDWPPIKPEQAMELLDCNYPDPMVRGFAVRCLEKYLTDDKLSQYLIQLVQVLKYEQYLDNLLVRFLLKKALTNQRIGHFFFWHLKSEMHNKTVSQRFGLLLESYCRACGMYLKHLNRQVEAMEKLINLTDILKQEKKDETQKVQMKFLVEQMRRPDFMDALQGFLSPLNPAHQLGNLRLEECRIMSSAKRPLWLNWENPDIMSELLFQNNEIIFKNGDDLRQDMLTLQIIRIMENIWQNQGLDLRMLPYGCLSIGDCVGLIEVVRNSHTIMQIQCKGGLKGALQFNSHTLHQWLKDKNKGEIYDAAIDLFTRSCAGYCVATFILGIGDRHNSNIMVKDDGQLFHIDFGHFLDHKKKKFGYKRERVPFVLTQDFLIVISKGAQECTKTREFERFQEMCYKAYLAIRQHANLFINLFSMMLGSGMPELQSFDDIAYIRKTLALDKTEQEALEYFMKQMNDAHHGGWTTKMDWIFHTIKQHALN
# UniProt Q08881, sequence (whole entry, looked up): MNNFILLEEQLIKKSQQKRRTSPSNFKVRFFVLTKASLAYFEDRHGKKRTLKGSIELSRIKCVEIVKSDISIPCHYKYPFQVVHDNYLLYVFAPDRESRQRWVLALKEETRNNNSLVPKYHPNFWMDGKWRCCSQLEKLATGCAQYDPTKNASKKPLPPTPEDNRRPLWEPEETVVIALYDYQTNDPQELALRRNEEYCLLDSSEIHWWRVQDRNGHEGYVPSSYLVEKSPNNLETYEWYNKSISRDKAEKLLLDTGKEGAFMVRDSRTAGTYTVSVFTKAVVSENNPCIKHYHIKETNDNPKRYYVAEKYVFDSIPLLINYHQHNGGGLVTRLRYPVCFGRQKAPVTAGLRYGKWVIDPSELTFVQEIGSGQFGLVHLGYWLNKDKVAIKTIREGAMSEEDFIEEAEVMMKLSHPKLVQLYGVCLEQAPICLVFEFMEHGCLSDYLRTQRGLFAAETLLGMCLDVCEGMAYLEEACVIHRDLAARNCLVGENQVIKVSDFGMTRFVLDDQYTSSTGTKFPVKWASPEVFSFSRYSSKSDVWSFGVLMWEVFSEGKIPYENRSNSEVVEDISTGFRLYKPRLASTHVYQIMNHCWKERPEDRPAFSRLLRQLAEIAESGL
# UniProt Q9BXA7, sequence (whole entry, looked up): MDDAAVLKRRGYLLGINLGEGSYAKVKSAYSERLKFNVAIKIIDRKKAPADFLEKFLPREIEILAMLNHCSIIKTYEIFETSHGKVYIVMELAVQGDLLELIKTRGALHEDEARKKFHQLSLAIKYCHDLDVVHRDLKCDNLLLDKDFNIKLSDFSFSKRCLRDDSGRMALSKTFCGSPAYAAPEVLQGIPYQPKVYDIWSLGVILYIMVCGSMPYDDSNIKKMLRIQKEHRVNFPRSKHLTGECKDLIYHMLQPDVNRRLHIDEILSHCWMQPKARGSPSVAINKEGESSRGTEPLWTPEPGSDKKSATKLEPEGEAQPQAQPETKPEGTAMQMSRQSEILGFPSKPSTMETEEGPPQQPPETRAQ

# Set 1
# Target: Calcium/calmodulin-dependent protein kinase type II subunit alpha (CAMK2A, Homo sapiens, UniProt Q9UQM7)
# UniProt Q9UQM7, sequence (whole entry, looked up): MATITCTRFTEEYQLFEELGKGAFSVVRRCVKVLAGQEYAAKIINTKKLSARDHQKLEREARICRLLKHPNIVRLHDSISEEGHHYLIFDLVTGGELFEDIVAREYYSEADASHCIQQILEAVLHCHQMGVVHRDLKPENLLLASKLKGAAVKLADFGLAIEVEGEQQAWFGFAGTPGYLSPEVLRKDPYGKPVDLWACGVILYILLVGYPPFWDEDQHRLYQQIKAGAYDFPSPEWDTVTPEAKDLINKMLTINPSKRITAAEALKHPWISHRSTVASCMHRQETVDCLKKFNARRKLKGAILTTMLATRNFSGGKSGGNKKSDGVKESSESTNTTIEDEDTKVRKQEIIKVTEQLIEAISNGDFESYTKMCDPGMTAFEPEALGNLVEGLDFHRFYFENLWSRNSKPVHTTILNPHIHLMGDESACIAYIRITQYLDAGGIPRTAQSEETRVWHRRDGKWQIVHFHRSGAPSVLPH
# Read-out: enzyme activity
# Mode: inhibitor
# Tested at: 10 µM
Structure (SMILES),inhibition [%]
CCN1C[C@]2(COC)[C@H](O)C[C@H](OC)[C@@]34[C@@H]5C[C@@]6(O)[C@H](OC(=O)c7ccccc7)[C@@H]5[C@@](O)([C@@H]([C@H](OC)[C@H]23)[C@@H]14)[C@@H](O)[C@@H]6OC,-14
C=C[C@@H]1C2=CCOC(=O)C2=CO[C@H]1O[C@@H]1O[C@H](CO)[C@@H](O)[C@H](O)[C@H]1O,27
Cc1c([C@H](C)[C@@H]2NC[C@@H](C)C[C@H]2O)ccc2c1C[C@H]1[C@H]2CC=C2C[C@@H](O[C@@H]3O[C@H](CO)[C@@H](O)[C@H](O)[C@H]3O)CC[C@@]21C,42
CCCCCOc1ccc(-c2cc(-c3ccc(C(=O)N[C@H]4C[C@@H](O)[C@@H](O)NC(=O)[C@@H]5[C@@H](O)[C@@H](C)CN5C(=O)[C@H]([C@H](O)CC(N)=O)NC(=O)[C@H]([C@H](O)[C@@H](O)c5ccc(O)c(OS(=O)(=O)O)c5)NC(=O)[C@@H]5C[C@@H](O)CN5C(=O)[C@H]([C@@H](C)O)NC4=O)cc3)no2)cc1,-1
COc1cc2c(cc1O)C[C@@H]1NCCc3cc(O)c(OC)c-2c31,-9
COC(=O)[C@]1(C)CC[C@]2(C)CC[C@]3(C)C4=CC=C5C(=CC(=O)C(O)=C5C)[C@]4(C)CC[C@@]3(C)[C@@H]2C1,-19
C/C=C1\C[C@@H](C)[C@](O)(CO)C(=O)OCC2=CCN3CC[C@@H](OC1=O)[C@@H]23,-36
Cc1cccc(Cc2c[nH]cn2)c1C,-4
NC(=O)CN1CCCC1=O,-8

# Set 2
# SMILES: COc1ccc2c(c[n+](C)c3c4cc5c(cc4ccc23)OCO5)c1OC
# Read-out: enzyme activity
# Mode: inhibitor
# Tested at: 0.5 µM
# Baseline: control
target,remaining activity [%]
"Serine/threonine-protein kinase 3 (STK3, Homo sapiens, UniProt Q13188)",102
"Platelet-derived growth factor receptor alpha (PDGFRA, Homo sapiens, UniProt P16234)",101
"Testis-specific serine/threonine-protein kinase 1 (TSSK1B, Homo sapiens, UniProt Q9BXA7)",97.3
"Serine/threonine-protein kinase haspin (HASPIN, Homo sapiens, UniProt Q8TF76)",98.8
"Serine/threonine-protein kinase pim-3 (PIM3, Homo sapiens, UniProt Q86V86)",99.6
"Calcium/calmodulin-dependent protein kinase type II subunit alpha (CAMK2A, Homo sapiens, UniProt Q9UQM7)",99.5
"Mitogen-activated protein kinase kinase kinase 7 (MAP3K7, Homo sapiens, UniProt O43318)",100
"Serine/threonine-protein kinase 4 (STK4, Homo sapiens, UniProt Q13043)",98.9
"Cyclin-dependent kinase 6, with cyclin D1 (CDK6, Homo sapiens, UniProt Q00534)",103

# Set 3
# SMILES: O=C1CCC(N2Cc3c(ccc4c3OCC43CCN(Cc4ccccc4)CC3)C2=O)C(=O)N1 (centres unmarked)
# Target: CRBN/Zinc finger protein Helios (Homo sapiens, UniProt Q96SW2+Q9UKS7)
# UniProt Q96SW2, sequence (whole entry, looked up): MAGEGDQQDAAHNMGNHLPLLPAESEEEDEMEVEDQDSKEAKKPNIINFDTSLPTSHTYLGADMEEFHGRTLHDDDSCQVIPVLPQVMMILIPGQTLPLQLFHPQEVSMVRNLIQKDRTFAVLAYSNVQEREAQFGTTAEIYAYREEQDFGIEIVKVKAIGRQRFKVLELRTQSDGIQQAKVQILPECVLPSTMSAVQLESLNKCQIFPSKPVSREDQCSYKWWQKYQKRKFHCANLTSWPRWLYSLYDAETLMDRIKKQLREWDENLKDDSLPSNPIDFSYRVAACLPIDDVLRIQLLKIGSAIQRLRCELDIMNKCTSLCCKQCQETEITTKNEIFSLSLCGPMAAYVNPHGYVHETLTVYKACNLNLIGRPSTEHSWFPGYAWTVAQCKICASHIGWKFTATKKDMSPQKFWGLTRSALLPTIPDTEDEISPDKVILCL
# UniProt Q9UKS7, sequence (whole entry, looked up): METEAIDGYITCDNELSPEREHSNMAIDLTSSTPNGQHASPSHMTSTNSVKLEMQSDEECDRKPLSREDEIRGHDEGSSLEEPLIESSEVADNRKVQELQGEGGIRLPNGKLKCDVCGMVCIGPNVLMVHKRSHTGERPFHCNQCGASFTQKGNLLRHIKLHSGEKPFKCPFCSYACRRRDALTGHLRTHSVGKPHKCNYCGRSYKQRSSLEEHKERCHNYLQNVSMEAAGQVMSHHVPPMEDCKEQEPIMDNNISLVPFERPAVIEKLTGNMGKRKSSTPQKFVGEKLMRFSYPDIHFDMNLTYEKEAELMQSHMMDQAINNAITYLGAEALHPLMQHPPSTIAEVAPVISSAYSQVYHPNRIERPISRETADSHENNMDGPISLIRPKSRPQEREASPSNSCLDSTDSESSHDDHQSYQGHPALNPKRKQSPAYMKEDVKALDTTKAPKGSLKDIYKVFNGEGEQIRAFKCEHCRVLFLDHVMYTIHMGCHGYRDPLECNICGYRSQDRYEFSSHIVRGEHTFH
# Mode: degrader
# Technique: HiBiT
# Cell line: HEK293
tested at,time,protein remaining [%]
41.15 nM,,81.4
1111.11 nM,6 h,54.3
1.524 nM,,92.8
0.1694 nM,,108
4.572 nM,,120
1.524 nM,6 h,92.8
10000 nM,,30.4
370.37 nM,,58.7

# Set 4
# Structure (SMILES): Cn1cncc1[C@](O)(COc1ccc(C#N)cc1-c1ccc(OC(F)(F)F)cc1)c1ccc(C#N)cc1
# Read-out: cell-free assay
# Technique: competition with immobilised ligand
# Tested at: 1 µM
target,remaining binding [%]
"Casein kinase I isoform alpha-like (CSNK1A1L, Homo sapiens, UniProt Q8N752)",74
"Epidermal growth factor receptor (EGFR, Homo sapiens, UniProt P00533, L858R)",86
"Dual serine/threonine and tyrosine protein kinase (DSTYK, Homo sapiens, UniProt Q6XUX3)",90
"Phosphatidylinositol 4,5-bisphosphate 3-kinase catalytic subunit alpha isoform (PIK3CA, Homo sapiens, UniProt P42336, Q546K)",82
"Epidermal growth factor receptor (EGFR, Homo sapiens, UniProt P00533, T790M)",100
"Serine/threonine-protein kinase 10 (STK10, Homo sapiens, UniProt O94804)",100
"Mitogen-activated protein kinase 15 (MAPK15, Homo sapiens, UniProt Q8TD08)",58
"Cyclin-dependent kinase 3 (CDK3, Homo sapiens, UniProt Q00526)",71
"Serine/threonine-protein kinase RIO2 (RIOK2, Homo sapiens, UniProt Q9BVS4)",83
"Tyrosine-protein kinase ITK/TSK (ITK, Homo sapiens, UniProt Q08881)",91
"Mitogen-activated protein kinase kinase kinase 6 (MAP3K6, Homo sapiens, UniProt O95382)",76
"Mitogen-activated protein kinase kinase kinase 4 (MAP3K4, Homo sapiens, UniProt Q9Y6R4)",90
"3-phosphoinositide-dependent protein kinase 1 (PDPK1, Homo sapiens, UniProt O15530)",87
"Serine/threonine-protein kinase MRCK beta (CDC42BPB, Homo sapiens, UniProt Q9Y5S2)",76
"MAP/microtubule affinity-regulating kinase 4 (MARK4, Homo sapiens, UniProt Q96L34)",56
"Calcium/calmodulin-dependent protein kinase type II subunit delta (CAMK2D, Homo sapiens, UniProt Q13557)",100
"Epidermal growth factor receptor (EGFR, Homo sapiens, UniProt P00533)",80
"Phosphatidylinositol 3-kinase catalytic subunit type 3 (PIK3C3, Homo sapiens, UniProt Q8NEB9)",91

# Excerpt of the above (set 3):
tested at,time,protein remaining [%]
1111.11 nM,6 h,54.3
4.572 nM,,120
10000 nM,,30.4
